{"data": "Measurements gathered from unrelated publications", "note": "Lines come from different studies, so protocols differ. Numbers after ± are the reported error.", "UniProt Q8NB78, sequence (whole entry, looked up)": "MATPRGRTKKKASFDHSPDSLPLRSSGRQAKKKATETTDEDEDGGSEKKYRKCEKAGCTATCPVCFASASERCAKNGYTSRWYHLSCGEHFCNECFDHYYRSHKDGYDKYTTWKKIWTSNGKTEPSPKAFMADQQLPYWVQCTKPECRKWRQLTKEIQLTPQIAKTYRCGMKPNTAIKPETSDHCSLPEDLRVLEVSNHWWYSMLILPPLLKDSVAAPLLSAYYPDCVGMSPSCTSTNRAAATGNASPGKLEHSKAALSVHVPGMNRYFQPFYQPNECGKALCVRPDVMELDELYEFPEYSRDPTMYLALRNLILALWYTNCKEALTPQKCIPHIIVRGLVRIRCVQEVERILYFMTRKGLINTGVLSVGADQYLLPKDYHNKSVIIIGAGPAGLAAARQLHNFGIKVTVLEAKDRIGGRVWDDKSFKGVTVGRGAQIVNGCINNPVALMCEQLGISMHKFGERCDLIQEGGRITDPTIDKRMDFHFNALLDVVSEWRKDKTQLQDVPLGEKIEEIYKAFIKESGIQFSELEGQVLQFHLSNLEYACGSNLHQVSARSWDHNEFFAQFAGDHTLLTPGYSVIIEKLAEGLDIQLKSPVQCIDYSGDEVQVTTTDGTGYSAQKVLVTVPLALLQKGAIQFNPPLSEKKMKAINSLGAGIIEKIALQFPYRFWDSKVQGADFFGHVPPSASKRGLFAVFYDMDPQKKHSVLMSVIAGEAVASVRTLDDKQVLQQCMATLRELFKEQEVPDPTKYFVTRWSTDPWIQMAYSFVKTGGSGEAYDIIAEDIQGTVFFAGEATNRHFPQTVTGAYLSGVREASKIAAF", "UniProt O75469, sequence (whole entry, looked up)": "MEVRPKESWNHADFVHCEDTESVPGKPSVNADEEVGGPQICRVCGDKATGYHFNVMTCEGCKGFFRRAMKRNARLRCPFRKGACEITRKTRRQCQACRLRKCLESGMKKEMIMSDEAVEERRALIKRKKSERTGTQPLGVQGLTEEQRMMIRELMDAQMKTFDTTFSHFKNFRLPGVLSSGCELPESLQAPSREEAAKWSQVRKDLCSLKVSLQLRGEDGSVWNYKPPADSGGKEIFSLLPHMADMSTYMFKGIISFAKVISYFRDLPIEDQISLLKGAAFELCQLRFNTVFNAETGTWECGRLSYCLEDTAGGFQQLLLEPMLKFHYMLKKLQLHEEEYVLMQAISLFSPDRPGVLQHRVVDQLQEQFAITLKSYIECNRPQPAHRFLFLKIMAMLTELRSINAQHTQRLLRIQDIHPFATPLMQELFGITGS"}
{"SMILES": "COc1ccc2cc([C@H](C)C(=O)NCCCC[C@@H](NC(=O)[C@@H](Cc3ccccc3)NC(=O)[C@H](N)Cc3ccccc3)C(=O)O)ccc2c1", "system": "hydrogel 0.8 wt% into PBS", "setting": "24 h, pH 7.4, 37 °C", "endpoint": "cumulative release", "value": "35.8%"}
{"SMILES": "CCCC[C@H](NC(=O)CNC(=O)CNC(=O)CN1CCN(CC(=O)O)CCN(CC(=O)O)CCN(CC(=O)O)CC1)C(=O)N[C@H]1CC(=O)NCCCC[C@@H](C(N)=O)NC(=O)[C@H](Cc2c[nH]c3ccccc23)NC(=O)[C@H](CCCNC(=N)N)NC(=O)[C@@H](Cc2ccccc2)NC(=O)[C@H](Cc2c[nH]cn2)NC1=O [lutetium-177 labelled]", "system": "C57 mouse, female, stomach", "setting": "intravenous, 0.037 MBq, 24 h", "endpoint": "tissue uptake", "value": "0.69 ± 0.09 %ID/g"}
{"SMILES": "[64Cu+2].c1cnc(CNCc2ccc(CN3CCCN4CCNCCCN(CC4)CC3)cc2)nc1", "target or system": "CXCR4 (human)", "system": "NOD/SCID mice, U87 xenografts, small intestine", "setting": "120 min post-injection", "endpoint": "tissue uptake", "value": "6.96 ± 0.79 %ID/g"}
{"SMILES": "NS(=O)(=O)Nc1ncnc(OCCOc2ncc(Br)cn2)c1-c1ccc(Br)cc1", "assay": "M6 formation", "system": "male Beagle dog, liver microsomes", "setting": "500 mg/kg daily for 4 weeks", "endpoint": "Km", "value": "5.3 ± 1 µM"}
{"SMILES": "N=C(N)NCCC[C@@H]1NC(=O)[C@H](CCCCNC(=O)CC[C@H](NC(=O)CC[C@H](NC(=O)CN2CCN(CC(=O)O)CCN(CC(=O)O)CCN(CC(=O)O)CC2)C(=O)N[C@@H](CCC(=O)NCCCC[C@@H]2NC(=O)[C@@H](Cc3ccccc3)NC(=O)[C@H](CC(=O)O)NC(=O)CNC(=O)[C@H](CCCNC(=N)N)NC2=O)C(=O)NCCCC[C@@H]2NC(=O)[C@@H](Cc3ccccc3)NC(=O)[C@H](CC(=O)O)NC(=O)CNC(=O)[C@H](CCCNC(=N)N)NC2=O)C(=O)NCCCC[C@@H]2NC(=O)[C@@H](Cc3ccccc3)NC(=O)[C@H](CC(=O)O)NC(=O)CNC(=O)[C@H](CCCNC(=N)N)NC2=O)NC(=O)[C@@H](Cc2ccccc2)NC(=O)[C@H](CC(=O)O)NC(=O)CNC1=O [indium-111 labelled]", "system": "female athymic nu/nu mice, blood", "setting": "intravenous, 4 h", "endpoint": "tissue uptake", "value": "0.12 ± 0.05 %ID/g"}
{"SMILES": "COc1ccc(CCCN[C@@H]2CCC[C@H]2CN[C@@H]2CCC[C@H]2CNCCCCN[C@@H]2CCC[C@H]2CN)cc1", "target or system": "KDM1B (Homo sapiens, UniProt Q8NB78)", "assay": "enzyme activity, inhibitor", "endpoint": "Ki", "value": "24 µM"}
{"SMILES": "CCCC[C@H](NC(=O)CNC(=O)CNC(=O)CN1CCN(CC(=O)O)CCN(CC(=O)O)CC1)C(=O)N[C@H]1CC(=O)NCCCC[C@@H](C(N)=O)NC(=O)[C@H](Cc2c[nH]c3ccccc23)NC(=O)[C@H](CCCNC(=N)N)NC(=O)[C@@H](Cc2ccccc2)NC(=O)[C@H](Cc2c[nH]cn2)NC1=O [technetium-99m labelled]", "system": "C57 mouse, pancreas", "setting": "iv, 0.037 MBq, 0.5 h", "endpoint": "tissue uptake", "value": "0.29 ± 0.1 %ID/g"}
{"SMILES": "CCCC[C@H](NC(=O)CCCCCCCNC(=O)CN1CCN(CC(=O)O)CCN(CC(=O)O)CC1)C(=O)N[C@H]1CC(=O)NCCCC[C@@H](C(N)=O)NC(=O)[C@H](Cc2c[nH]c3ccccc23)NC(=O)[C@H](CCCNC(=N)N)NC(=O)[C@@H](Cc2ccccc2)NC(=O)[C@H](Cc2c[nH]cn2)NC1=O [copper-64 labelled]", "system": "C57 mice, blood", "setting": "intravenous, 0.37 MBq, 2 h", "endpoint": "tissue uptake", "value": "0.27 ± 0.05 %ID/g"}
{"SMILES": "CC(C)C[C@@H](NC(=O)[C@@H](CCC(=O)O)NC(=O)[C@@H](CC(C)C)NC(=O)[C@@H](CC(C)C)NC(=O)[C@@H](CC(C)C)NC(=O)[C@H](NC(=O)[C@@H](CCC(=O)O)NC(=O)[C@H](NC(=O)[C@H]1CCCN1C(=O)[C@@H](Cc1ccccc1)NC(=O)[C@@H](CC(C)C)NC(=O)[C@@H](Cc1c[nH]c2ccccc12)NC(=O)[C@@H](CCC(=O)O)NC(=O)[C@@H](CC(C)C)NC(=O)[C@@H](Cc1ccc(O)cc1)NC(=O)[C@@H](CCCNC(=N)N)NC(=O)[C@@H](C)NC(=O)[C@@H](Cc1c[nH]c2ccccc12)NC(=O)[C@H]1CCCN1C(=O)[C@@H](CC(N)=O)NC(=O)[C@@H](CCC(N)=O)NC(=O)[C@@H](CCC(=O)O)NC(=O)[C@@H](CCC(=O)O)NC(=O)[C@@H](CS)NC(=O)[C@@H](C)NC(=S)Nc1ccc(CC2CN(CC(=O)O)CCN(CC(=O)O)CCN2CC(=O)O)cc1)[C@H](C)O)[C@H](C)O)C(=O)O (stereo partly shown) [copper-64 labelled]", "system": "female BALB/c mice, 4T1 orthotopic tumour", "setting": "intravenous, 2 h", "scale": "baseline: kidney over large intestine", "endpoint": "kidney-to-large intestine ratio", "value": "0.32 ± 0.07"}
{"SMILES": "N=C(N)NCCC[C@@H]1NC(=O)[C@H](CCCCNC(=O)CNC(=O)CNC(=O)CNC(=O)CC[C@H](NC(=O)CNC(=O)CNC(=O)CNC(=O)CC[C@H](NC(=O)CN2CCN(CC(=O)O)CCN(CC(=O)O)CCN(CC(=O)O)CC2)C(=O)NCC(=O)NCC(=O)NCC(=O)N[C@@H](CCC(=O)NCC(=O)NCC(=O)NCC(=O)NCCCC[C@@H]2NC(=O)[C@@H](Cc3ccccc3)NC(=O)[C@H](CC(=O)O)NC(=O)CNC(=O)[C@H](CCCNC(=N)N)NC2=O)C(=O)NCC(=O)NCC(=O)NCC(=O)NCCCC[C@@H]2NC(=O)[C@@H](Cc3ccccc3)NC(=O)[C@H](CC(=O)O)NC(=O)CNC(=O)[C@H](CCCNC(=N)N)NC2=O)C(=O)NCC(=O)NCC(=O)NCC(=O)NCCCC[C@@H]2NC(=O)[C@@H](Cc3ccccc3)NC(=O)[C@H](CC(=O)O)NC(=O)CNC(=O)[C@H](CCCNC(=N)N)NC2=O)NC(=O)[C@@H](Cc2ccccc2)NC(=O)[C@H](CC(=O)O)NC(=O)CNC1=O [indium-111 labelled]", "system": "female athymic nu/nu mice, kidney", "setting": "intravenous, 72 h", "endpoint": "tissue uptake", "value": "3.45 ± 0.9 %ID/g"}
{"SMILES": "CCC(=O)N(C)c1ccc(Cl)c(Cl)c1", "target or system": "NR1I2 (Homo sapiens, UniProt O75469)", "assay": "reporter gene, agonist", "setting": "100 µM", "scale": "baseline: vehicle", "endpoint": "fold activation", "value": "2.28 fold"}
{"SMILES": "C=C1CC[C@H](OCCCNC(=O)CCOCCOCCOCCOCCOCCOCCOCCOCCOCCOCCOCCOCCOCCOCCOCCOCCOCCOCCOCCOCCOCCOCCOCCOCCOCCOCCOCCOCCOCCOCCOCCOCCOCCOCCOCCOCCNC(=O)CCN2C(=O)CC(SC[C@H](NC(=O)[C@H](Cc3ccccc3)NC(=O)[C@H](CC(N)=O)NC(=O)[C@H](Cc3c[nH]cn3)NC(=O)[C@@H](NC(=O)[C@H](CC(=O)O)NC(=O)[C@H](CCC(N)=O)NC(=O)[C@H](CC(C)C)NC(=O)[C@H](CCCCN)NC(=O)[C@H](CCCCN)NC(=O)[C@H](CCCNC(=N)N)NC(=O)[C@H](CC(C)C)NC(=O)[C@H](Cc3c[nH]c4ccccc34)NC(=O)[C@H](CCC(=O)O)NC(=O)[C@@H](NC(=O)[C@H](CCCNC(=N)N)NC(=O)[C@H](CCC(=O)O)NC(=O)[C@H](CCSC)NC(=O)[C@H](CO)NC(=O)[C@H](CC(N)=O)NC(=O)[C@H](CC(C)C)NC(=O)[C@H](Cc3c[nH]cn3)NC(=O)[C@H](CCCCN)NC(=O)CNC(=O)[C@H](CC(C)C)NC(=O)[C@H](CC(N)=O)NC(=O)[C@H](Cc3c[nH]cn3)NC(=O)[C@H](CCSC)NC(=O)[C@H](CC(C)C)NC(=O)[C@H](CCC(N)=O)NC(=O)[C@@H](NC(=O)[C@H](CCC(=O)O)NC(=O)[C@H](CO)NC(=O)[C@@H](NC(=O)[C@@H](N)CO)C(C)C)[C@@H](C)CC)C(C)C)C(C)C)C(N)=O)C2=O)C/C1=C/C=C1\\CCC[C@]2(C)[C@@H]([C@H](C)CCCC(C)(C)O)CC[C@@H]12 (stereo partly shown)", "system": "cynomolgus monkey", "setting": "sc, 20 µg/kg every other day, 21 days", "scale": "baseline: 0.7 µg/kg dose", "endpoint": "dose-normalised AUC", "value": 0.26}
{"SMILES": "N=C(N)NCCC[C@@H]1NC(=O)[C@H](CCCCNC(=O)CNC(=O)CNC(=O)CNC(=O)CC[C@H](NC(=O)CNC(=O)CNC(=O)CNC(=O)CN2CCN(CC(=O)O)CCN(CC(=O)O)CCN(CC(=O)O)CC2)C(=O)NCC(=O)NCC(=O)NCC(=O)NCCCC[C@@H]2NC(=O)[C@@H](Cc3ccccc3)NC(=O)[C@H](CC(=O)O)NC(=O)CNC(=O)[C@H](CCCNC(=N)N)NC2=O)NC(=O)[C@@H](Cc2ccccc2)NC(=O)[C@H](CC(=O)O)NC(=O)CNC1=O [indium-111 labelled]", "system": "female athymic nu/nu mice, intestine", "setting": "intravenous, 24 h", "endpoint": "tissue uptake", "value": "3.77 ± 0.07 %ID/g"}
{"note": "A few entries again:"}
{"SMILES": "CC(C)C[C@@H](NC(=O)[C@@H](CCC(=O)O)NC(=O)[C@@H](CC(C)C)NC(=O)[C@@H](CC(C)C)NC(=O)[C@@H](CC(C)C)NC(=O)[C@H](NC(=O)[C@@H](CCC(=O)O)NC(=O)[C@H](NC(=O)[C@H]1CCCN1C(=O)[C@@H](Cc1ccccc1)NC(=O)[C@@H](CC(C)C)NC(=O)[C@@H](Cc1c[nH]c2ccccc12)NC(=O)[C@@H](CCC(=O)O)NC(=O)[C@@H](CC(C)C)NC(=O)[C@@H](Cc1ccc(O)cc1)NC(=O)[C@@H](CCCNC(=N)N)NC(=O)[C@@H](C)NC(=O)[C@@H](Cc1c[nH]c2ccccc12)NC(=O)[C@H]1CCCN1C(=O)[C@@H](CC(N)=O)NC(=O)[C@@H](CCC(N)=O)NC(=O)[C@@H](CCC(=O)O)NC(=O)[C@@H](CCC(=O)O)NC(=O)[C@@H](CS)NC(=O)[C@@H](C)NC(=S)Nc1ccc(CC2CN(CC(=O)O)CCN(CC(=O)O)CCN2CC(=O)O)cc1)[C@H](C)O)[C@H](C)O)C(=O)O (stereo partly shown) [copper-64 labelled]", "system": "female BALB/c mice, 4T1 orthotopic tumour", "setting": "intravenous, 2 h", "scale": "baseline: kidney over large intestine", "endpoint": "kidney-to-large intestine ratio", "value": "0.32 ± 0.07"}
